Published values from different studies.
Lines come from different studies, so protocols differ. Square brackets hold non-standard residues; d marks the D form. Ends that are not written are not given here.
B1: Scn2a 989-1133 (UniProt P04775); CK2-phosphorylated; sequence looked up; chain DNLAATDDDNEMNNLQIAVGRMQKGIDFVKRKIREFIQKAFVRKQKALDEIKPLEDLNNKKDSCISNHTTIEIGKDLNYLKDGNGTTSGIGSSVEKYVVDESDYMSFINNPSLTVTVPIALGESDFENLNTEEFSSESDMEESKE
B2: UGT1A9 (Homo sapiens, UniProt O60656); chain GKLLVVPMDGSHWFTMRSVVEKLILRGHEVVVVMPEVSWQLGRSLNCTVKTYSTSYTLEDLDREFKAFAHAQWKAQVRSIYSLLMGSYNDIFDLFFSNCRSLFKDKKLVEYLKESSFDAVFLDPFDNCGLIVAKYFSLPSVVFARGILCHYLEEGAQCPAPLSYVPRILLGFSDAMTFKERVRNHIMHLEEHLLCHRFFKNALEIASEILQTPVTEYDLYSHTSIWLLRTDFVLDYPKPVMPNMIFIGGINCHQGKPLPMEFEAYINASGEHGIVVFSLGSMVSEIPEKKAMAIADALGKIPQTVLWRYTGTRPSNLANNTILVKWLPQNDLLGHPMTRAFITHAGSHGVYESICNGVPMVMMPLFGDQMDNAKRMETKGAGVTLNVLEMTSEDLENALKAVINDKSYKENIMRLSSLHKDRPVEPLDLAVFWVEFVMRHKGAPHLRPAAHDLTWYQYHSLDVIGFLLAVVLTVAFITFKCCAYGYRKCLGKKGRVKKAHKSKTH
B3: BRCA1 452-1079 (Homo sapiens, UniProt P38398); sequence looked up; chain VESNIEDKIFGKTYRKKASLPNLSHVTENLIIGAFVTEPQIIQERPLTNKLKRKRRPTSGLHPEDFIKKADLAVQKTPEMINQGTNQTEQNGQVMNITNSGHENKTKGDSIQNEKNPNPIESLEKESAFKTKAEPISSSISNMELELNIHNSKAPKKNRLRRKSSTRHIHALELVVSRNLSPPNCTELQIDSCSSSEEIKKKKYNQMPVRHSRNLQLMEGKEPATGAKKSNKPNEQTSKRHDSDTFPELKLTNAPGSFTKCSNTSELKEFVNPSLPREEKEEKLETVKVSNNAEDPKDLMLSGERVLQTERSVESSSISLVPGTDYGTQESISLLEVSTLGKAKTEPNKCVSQCAAFENPKGLIHGCSKDNRNDTEGFKYPLGHEVNHSRETSIEMEESELDAQYLQNTFKVSKRQSFAPFSNPGNAEEECATFSAHSGSLKKQSPKVTFECEQKEENQGKNESNIKPVQTVNITAGFPVVGQKDKPVDNAKCSIKGGSRFCLSSQFRGNETGLITPNKHGLLQNPYRIPPLFPIKSFVKTKCKKNLLEENFEEHSMSPEREMGNENIPSTVSTISRNNIRENVFKEASSSNINEVGSSTNEVGSSINEIGSSDENIQAELGRNRGPK
UniProt Q14191, sequence (whole entry, looked up): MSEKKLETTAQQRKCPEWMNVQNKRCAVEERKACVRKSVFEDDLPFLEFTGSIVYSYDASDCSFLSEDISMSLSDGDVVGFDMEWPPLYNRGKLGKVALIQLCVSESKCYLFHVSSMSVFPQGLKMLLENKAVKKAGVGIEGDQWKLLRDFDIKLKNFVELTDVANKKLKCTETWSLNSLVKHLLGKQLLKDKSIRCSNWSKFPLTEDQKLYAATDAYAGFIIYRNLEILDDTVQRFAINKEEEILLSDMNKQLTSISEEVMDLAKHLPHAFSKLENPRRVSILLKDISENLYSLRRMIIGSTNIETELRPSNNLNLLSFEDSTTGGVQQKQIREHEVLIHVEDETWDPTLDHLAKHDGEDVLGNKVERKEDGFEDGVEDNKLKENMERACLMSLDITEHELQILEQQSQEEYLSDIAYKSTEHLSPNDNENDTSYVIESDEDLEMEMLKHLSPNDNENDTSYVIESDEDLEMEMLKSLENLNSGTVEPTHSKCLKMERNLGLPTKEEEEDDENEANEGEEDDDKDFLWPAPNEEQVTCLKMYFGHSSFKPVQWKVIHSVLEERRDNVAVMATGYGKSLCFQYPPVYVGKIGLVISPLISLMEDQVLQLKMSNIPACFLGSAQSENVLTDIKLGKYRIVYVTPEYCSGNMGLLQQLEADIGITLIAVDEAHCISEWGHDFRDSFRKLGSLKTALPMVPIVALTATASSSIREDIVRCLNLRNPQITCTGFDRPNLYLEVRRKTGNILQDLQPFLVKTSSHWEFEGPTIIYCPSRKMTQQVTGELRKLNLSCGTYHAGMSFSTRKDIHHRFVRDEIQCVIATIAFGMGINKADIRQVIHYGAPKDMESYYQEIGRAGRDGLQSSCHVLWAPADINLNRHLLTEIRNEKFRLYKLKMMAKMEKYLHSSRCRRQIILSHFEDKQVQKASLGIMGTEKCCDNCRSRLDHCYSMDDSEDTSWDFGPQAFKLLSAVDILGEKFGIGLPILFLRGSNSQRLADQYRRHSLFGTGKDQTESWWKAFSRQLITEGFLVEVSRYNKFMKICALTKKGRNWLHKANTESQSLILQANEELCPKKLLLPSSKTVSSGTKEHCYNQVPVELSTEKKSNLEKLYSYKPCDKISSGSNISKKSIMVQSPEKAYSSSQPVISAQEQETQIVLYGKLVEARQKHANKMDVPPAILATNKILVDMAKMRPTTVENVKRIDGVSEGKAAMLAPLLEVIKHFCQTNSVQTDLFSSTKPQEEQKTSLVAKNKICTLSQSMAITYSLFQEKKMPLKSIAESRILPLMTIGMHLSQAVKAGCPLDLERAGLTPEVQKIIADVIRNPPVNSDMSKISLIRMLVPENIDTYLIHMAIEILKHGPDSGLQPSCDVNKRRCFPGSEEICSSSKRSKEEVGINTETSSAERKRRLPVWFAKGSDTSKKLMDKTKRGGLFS
UniProt P29375, sequence (whole entry, looked up): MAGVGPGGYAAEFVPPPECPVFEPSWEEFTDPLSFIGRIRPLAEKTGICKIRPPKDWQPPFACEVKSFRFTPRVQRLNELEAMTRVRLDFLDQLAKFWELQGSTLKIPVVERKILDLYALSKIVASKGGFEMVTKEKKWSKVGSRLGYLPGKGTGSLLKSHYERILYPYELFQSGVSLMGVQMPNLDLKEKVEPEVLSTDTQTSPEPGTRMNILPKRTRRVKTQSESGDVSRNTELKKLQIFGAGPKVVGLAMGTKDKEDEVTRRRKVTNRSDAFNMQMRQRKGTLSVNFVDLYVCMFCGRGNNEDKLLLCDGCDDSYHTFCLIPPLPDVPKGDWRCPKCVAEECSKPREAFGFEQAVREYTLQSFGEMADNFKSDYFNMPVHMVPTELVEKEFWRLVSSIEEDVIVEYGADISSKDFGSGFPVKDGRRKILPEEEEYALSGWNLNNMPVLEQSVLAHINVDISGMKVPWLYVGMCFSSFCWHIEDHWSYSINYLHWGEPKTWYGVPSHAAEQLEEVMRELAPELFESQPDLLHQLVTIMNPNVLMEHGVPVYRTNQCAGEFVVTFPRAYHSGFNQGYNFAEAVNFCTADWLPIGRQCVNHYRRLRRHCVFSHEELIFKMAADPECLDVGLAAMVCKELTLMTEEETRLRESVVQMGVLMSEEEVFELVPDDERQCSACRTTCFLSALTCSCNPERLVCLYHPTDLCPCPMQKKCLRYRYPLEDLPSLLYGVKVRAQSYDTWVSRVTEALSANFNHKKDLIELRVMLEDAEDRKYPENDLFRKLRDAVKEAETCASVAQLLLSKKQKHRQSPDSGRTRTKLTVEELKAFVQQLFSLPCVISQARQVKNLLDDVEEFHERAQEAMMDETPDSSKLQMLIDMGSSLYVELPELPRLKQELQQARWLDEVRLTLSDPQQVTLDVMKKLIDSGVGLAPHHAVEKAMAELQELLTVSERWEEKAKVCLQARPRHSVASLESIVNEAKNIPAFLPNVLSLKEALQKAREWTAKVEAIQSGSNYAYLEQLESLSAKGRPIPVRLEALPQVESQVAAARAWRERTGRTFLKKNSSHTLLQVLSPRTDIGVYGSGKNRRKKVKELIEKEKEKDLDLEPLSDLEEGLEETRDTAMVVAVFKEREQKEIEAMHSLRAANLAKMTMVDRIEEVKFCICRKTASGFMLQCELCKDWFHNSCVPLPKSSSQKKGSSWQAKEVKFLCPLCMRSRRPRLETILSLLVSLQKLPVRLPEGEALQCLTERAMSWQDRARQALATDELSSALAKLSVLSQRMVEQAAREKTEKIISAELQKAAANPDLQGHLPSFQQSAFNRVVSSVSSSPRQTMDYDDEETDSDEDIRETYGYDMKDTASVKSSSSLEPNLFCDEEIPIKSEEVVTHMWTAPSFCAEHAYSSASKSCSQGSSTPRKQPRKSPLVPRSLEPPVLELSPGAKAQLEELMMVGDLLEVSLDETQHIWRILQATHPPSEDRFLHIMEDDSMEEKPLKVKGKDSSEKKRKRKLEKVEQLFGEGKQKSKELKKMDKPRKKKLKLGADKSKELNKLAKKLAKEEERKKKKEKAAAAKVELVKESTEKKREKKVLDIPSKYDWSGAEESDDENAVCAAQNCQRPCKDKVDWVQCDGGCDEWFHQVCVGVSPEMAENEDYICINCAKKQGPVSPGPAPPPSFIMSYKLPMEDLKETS
UniProt Q8NE35, sequence (whole entry, looked up): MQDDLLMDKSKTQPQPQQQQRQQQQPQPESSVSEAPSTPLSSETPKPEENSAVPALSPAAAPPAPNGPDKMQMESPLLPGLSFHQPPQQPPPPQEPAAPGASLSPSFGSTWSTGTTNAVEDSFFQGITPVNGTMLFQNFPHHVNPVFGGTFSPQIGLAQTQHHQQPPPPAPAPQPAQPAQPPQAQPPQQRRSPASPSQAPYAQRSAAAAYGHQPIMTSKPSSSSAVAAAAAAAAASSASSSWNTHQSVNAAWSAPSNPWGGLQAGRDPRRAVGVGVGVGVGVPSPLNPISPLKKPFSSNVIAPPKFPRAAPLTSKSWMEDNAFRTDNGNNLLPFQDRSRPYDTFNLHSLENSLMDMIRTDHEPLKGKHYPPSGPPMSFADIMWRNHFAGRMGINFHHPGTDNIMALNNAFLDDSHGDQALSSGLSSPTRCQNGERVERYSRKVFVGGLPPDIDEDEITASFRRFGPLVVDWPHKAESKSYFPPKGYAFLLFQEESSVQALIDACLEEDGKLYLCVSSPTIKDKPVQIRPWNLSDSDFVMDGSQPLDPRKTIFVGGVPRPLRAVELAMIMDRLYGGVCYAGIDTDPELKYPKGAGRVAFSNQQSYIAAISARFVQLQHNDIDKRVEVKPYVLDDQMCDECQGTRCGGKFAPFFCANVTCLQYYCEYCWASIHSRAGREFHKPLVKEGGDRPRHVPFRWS
UniProt P47871, sequence (whole entry, looked up): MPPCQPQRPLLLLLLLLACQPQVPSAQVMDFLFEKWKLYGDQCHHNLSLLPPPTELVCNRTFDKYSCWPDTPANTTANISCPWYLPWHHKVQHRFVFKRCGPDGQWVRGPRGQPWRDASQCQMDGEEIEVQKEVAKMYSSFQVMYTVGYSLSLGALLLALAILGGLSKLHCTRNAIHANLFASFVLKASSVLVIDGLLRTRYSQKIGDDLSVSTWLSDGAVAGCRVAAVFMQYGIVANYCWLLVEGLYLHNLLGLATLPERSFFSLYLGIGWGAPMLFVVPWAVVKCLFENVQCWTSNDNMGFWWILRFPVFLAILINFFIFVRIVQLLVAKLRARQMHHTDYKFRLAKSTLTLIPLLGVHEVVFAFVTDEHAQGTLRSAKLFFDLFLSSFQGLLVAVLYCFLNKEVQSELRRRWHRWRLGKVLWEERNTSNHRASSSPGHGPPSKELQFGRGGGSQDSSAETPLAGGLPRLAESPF
UniProt P30411, sequence (whole entry, looked up): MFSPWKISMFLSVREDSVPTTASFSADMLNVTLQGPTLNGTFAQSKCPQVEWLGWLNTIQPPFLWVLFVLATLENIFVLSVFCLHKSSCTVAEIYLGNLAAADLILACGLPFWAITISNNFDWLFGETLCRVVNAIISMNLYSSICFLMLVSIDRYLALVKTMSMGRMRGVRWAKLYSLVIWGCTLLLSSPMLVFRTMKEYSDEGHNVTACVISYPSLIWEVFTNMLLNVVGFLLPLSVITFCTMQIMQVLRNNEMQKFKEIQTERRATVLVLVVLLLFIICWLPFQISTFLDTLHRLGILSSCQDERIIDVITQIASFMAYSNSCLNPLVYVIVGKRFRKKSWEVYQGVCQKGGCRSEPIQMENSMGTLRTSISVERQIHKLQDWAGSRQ
UniProt P0A6G7, sequence (whole entry, looked up): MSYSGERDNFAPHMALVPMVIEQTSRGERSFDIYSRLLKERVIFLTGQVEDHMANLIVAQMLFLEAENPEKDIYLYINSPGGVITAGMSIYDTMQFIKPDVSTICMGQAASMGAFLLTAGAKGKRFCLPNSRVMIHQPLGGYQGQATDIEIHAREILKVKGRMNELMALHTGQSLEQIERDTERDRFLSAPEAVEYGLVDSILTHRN

B1 (Scn2a 989-1133)  koff (ANK2 1-957 (Homo sapiens, UniProt Q01484-2); SPR; pH 7.4, 25 °C, NaCl 150 mM): 0.0023 s⁻¹
CPEB3 (Homo sapiens, UniProt Q8NE35)  transactivation (Stat5b (Mus musculus, UniProt P42232); reporter gene; 293T; relative to: WT Stat5b, higher = more activation): 2.2 fold
B2 (UGT1A9)  Vmax (O=c1cc(-c2cccc(O)c2)oc2cc(O)ccc12; steady-state kinetics; pH 7.4, 37 °C): 0.0162 µmol/min/mg
B3 (BRCA1 452-1079)  helicase activity (WRN (Homo sapiens, UniProt Q14191); helicase activity, activator; higher = more unwinding): 5 fold
clpP mature, wild type (Escherichia coli, UniProt P0A6G7)  Kapp (clpA (Escherichia coli, UniProt P0ABH9); ATPase stimulation, activator): 20 nM
cyp102A1 flavin reductase domain (Bacillus megaterium)  rate constant (CYP3A4 del3-12 (Homo sapiens, UniProt P08684); BMR-dependent reduction; proteoliposomes; mono-exponential, with: ANF): 0.00087 s⁻¹
EPB41 fragment (Homo sapiens)  fold increase of Kd (SLC9A1 residues 506-575 (Rattus norvegicus); resonant mirror detection; pH 5.5): > 20 times
ARVKRTARKS (Histone H3.1 2-11 T3V/Q5R (Homo sapiens, UniProt P68431); sequence looked up)  Ki (KDM5A 287-347 (Homo sapiens, UniProt P29375); competition with labeled peptide, fluorescence polarisation; peptide; with: H3 peptide): 2540 nM
DNAJB11 (Homo sapiens, UniProt Q9UBS4)  ATPase stimulation (HSPA5 (Homo sapiens, UniProt P11021); BiP ATPase activity, activator; relative to: intrinsic activity, higher = more stimulation): > 20 fold
A2M methylamine-activated (Homo sapiens, UniProt P01023)  mRNA level (Lrp1 (Rattus norvegicus, UniProt G3V928); MCP-1/CCL2 mRNA; rat Schwann cells; 50 nM, 6 hr; relative to: vehicle, higher = more mRNA): 13.4 fold
bradykinin mature (UniProt P01042)  distance travelled increase (BDKRB2 (Homo sapiens, UniProt P30411); time-lapse; D54-MG-GFP; 5 h; relative to: control, higher = more migration): 28.8%
H[dS]QGTFTSDYSKYLDSRRAQ[dC]FVQWLMCTKRNRNNIA-NH2 (oxyntomodulin analog D21C/N28C, D-Ser2, D-Cys21, C-terminal amide; cysteine pairing not given here; D-Ser2, D-Cys21, C-terminal amide)  EC50 (GCGR (Homo sapiens, UniProt P47871); CRE luciferase reporter, agonist; peptide, HEK293): > 1000 nM

Some of these lines once more:
ARVKRTARKS (Histone H3.1 2-11 T3V/Q5R (Homo sapiens, UniProt P68431); sequence looked up)  Ki (KDM5A 287-347 (Homo sapiens, UniProt P29375); competition with labeled peptide, fluorescence polarisation; peptide; with: H3 peptide): 2540 nM
DNAJB11 (Homo sapiens, UniProt Q9UBS4)  ATPase stimulation (HSPA5 (Homo sapiens, UniProt P11021); BiP ATPase activity, activator; relative to: intrinsic activity, higher = more stimulation): > 20 fold
